Measured values of several laboratories.
Parts stem from different laboratories: compare values within a part only.

Series 1
Target: Interferon regulatory factor 5, full length, phosphomimetic (IRF5, Homo sapiens, UniProt Q13568-2, residues 1-514, S451D/S453D/S456D/S462D)
Technique: protein-binding microarray
Molecule type: double-stranded DNA, one strand shown
Matrix: in vitro
Tested at: 940 nM top
Setting: 60-bp whole probe
Added: salmon DNA 0.4 mg/ml
Relative to: random background probes
Reading: higher = stronger binding
All sequences stand within: GCCTAGCAC … GTCTTGATTCGCTTGACGCTGCTG
Strand | fitted relative affinity
GACCGACTGCTACTGCTGACGTGCTAG | -0.501 z-score
GACGATATCAGTCTTGAGACGTGCTAG | -0.0945 z-score
GACGTTATCGGGTATCGGGACGTGCTA | 1.04 z-score
GACGGTAGCGGTCTCGGGACGTGCTAG | 0.553 z-score
TTAGATATCGGGTATTGATTAGTGCTA | 0.566 z-score
TGCTGTCTCAGAGTCCTCTGGTGCTAG | 0.0616 z-score
TTACGTATCGGGACTGGGTTAGTGCTA | 2.64 z-score
GACGGTCCCCTTTTCCTGACGTGCTAG | 0.568 z-score
TTAGGACTGGACTATCGGTTCGTGCTA | -0.215 z-score
AACTGTCTGCCTTTCAATCCGTGCTAG | 0.348 z-score
GACGGTCTCGGTATCAGGACGTGCTAG | 4.11 z-score
GACGATACCAGTCTCGAGACGTGCTAG | 2.13 z-score
TTAGGTATCGGGACTGGGTGAGTGCTA | 3.82 z-score
GACGAACTGGGGTTTCGAGAGGTGCTA | 1.71 z-score
GACGGACTGGCTCTCGGGACGTGCTAG | -0.251 z-score
TTAGGTTTCCTTTCCCTGTAGTGCTAG | 2.29 z-score
CTGCTGATCGGTTGGGGTGGGTGCTAG | -0.0755 z-score
GACGGACTACTACTGCTGACGTGCTAG | -0.0832 z-score
TTAGGTATCGATTATCGGTTAGTGCTA | 9.54 z-score

Series 2
Target: Centromere-binding protein 1, full length, His-tagged (CBF1, Saccharomyces cerevisiae, UniProt P17106, residues 1-351)
UniProt P17106, sequence (whole entry, looked up): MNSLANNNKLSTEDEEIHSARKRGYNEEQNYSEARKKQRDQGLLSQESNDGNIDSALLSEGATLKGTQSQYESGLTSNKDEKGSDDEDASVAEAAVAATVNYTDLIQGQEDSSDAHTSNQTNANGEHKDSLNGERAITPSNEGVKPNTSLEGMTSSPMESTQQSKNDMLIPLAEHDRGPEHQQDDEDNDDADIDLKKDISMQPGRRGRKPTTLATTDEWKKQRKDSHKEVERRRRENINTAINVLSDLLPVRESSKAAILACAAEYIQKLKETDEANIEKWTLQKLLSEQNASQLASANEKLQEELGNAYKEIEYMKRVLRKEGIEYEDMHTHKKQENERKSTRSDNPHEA
Technique: competition protein-binding microarray
Molecule type: double-stranded DNA, one strand shown
Matrix: in vitro
Tested at: 2 µM
Setting: whole 60-bp probe, lowest competitor level
Added: Pho4 competitor, 0.05 µM
Reading: higher = stronger binding
All sequences stand within: … GTCTTGATTCGCTTGACGCTGCTG
Strand | fluorescence intensity [a.u.]
AAATTACTAAGTTGATCGGTGGGTGACGCCGTATGA | 65.8
ACATTGGTCTGAAAACACGTGTAGTACTTTCTCCTT | 916
GCTCTTCATACCCCTCCCGTGGAACTAGTTCGGAAG | 68.3
AATGCACTTGATTTGCACGTGGGACCTGGGCGGCTA | 695
TCACAACAGATATCCCACATGAGGCAGCGCTACCCA | 57.5
TGCGCAACAACTTTTCACGTGGGATTATGTCTAGAA | 641
CGTCCTAGCGATTGAGCGGTGGGTGCCATGAGGAAG | 77.4
ACATCTCCATTGATTTGTTCTAATAGCATTTCATCC | 76.7
GGGATATTCCACCATCACGTCTGCGCCAAGCCACAA | 77.4
ACTGGTCAAAACCATCACGTGAAAAGGAAAACAAGA | 4170
AGTACATTCACTTCTAACGTGACGGGTTTCACCACA | 178
AAATTACTAAGTTGGCTAGTGGGTGACGCCGTATGA | 81.5
CTTTCCCGATCTTGACTGGTGGGTGTAGCACATTTG | 73.3
ATATTTTATCATCCACACGTGGTGATATTTCAACGA | 998
TAAGGAAGGATATGGCACACGCTTGTGTTCAAGAAT | 71
TGATACAAGTCGTCGTCCGTGACGAAGGATCAGGAA | 91
CGCTTCCCAGCTTTTCACGTGCGATGTGGACTAATA | 862
TAACGCGATTTACGCTCCGTGCAAAACGATTCTTTG | 75.2
TTTTATTCCTGGAAAAGCGTGCAAATATTTTTCGAG | 144

Series 3
Target: RING finger protein unkempt homolog, zinc fingers 1-6, GST-SBP tag (UNK, Homo sapiens, UniProt Q9C0B0, residues 30-357)
Technique: RNA Bind-n-Seq
Molecule type: RNA
Matrix: in vitro
Tested at: not given
Setting: RNA with constant flanks, human and mouse sites, ends assumed
Relative to: input RNA pool
Reading: higher = stronger binding
All sequences stand within: GGGAGUUCUACAGUCCGACGAUC … CAACAGAGGAUUGAGCAUCA
Residues (chain): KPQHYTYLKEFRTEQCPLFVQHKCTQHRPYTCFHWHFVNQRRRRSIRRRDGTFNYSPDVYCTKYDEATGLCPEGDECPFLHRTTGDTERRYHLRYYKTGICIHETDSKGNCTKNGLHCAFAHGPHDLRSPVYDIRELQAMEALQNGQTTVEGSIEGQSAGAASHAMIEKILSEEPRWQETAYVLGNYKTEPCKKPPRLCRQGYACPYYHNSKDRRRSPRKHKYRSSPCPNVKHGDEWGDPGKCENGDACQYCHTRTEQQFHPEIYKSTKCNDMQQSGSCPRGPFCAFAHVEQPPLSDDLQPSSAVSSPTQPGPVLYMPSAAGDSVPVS
Strand | bound/input enrichment [ratio]
ACCGAGGAGCAGAAGGGCCGAGUGGCCUUCGCUUCCAACUUCCUGGCAGGAGAUGCUUCCCUGCAGAUUGAGCCUCUGAAACCCAGUGAUGAAGGCAGAUACACCUGCAAGGUGAAGAAU | 0.0914
UGCCUCUAAGGCUGGGCUCUGCCUCAGAGGAGUUUAUUUUCUUUUUUUCUAUAAAGUUUAAAUAGUCUUUUGAGUGAAUUUUCUGGUCAUUGCCUAUACAAAUAAAUGUAAGAAAUCUGG | 0.987
UCUGAUGUCUCCCAGAUGAAUGAUAGACUGGGGGAAGAUGAGUCCUUGCUAAUGAAAUUGUAUAGCUUCCUCCUAAAUGAGUCCCCCUUGAACCCACUACUCGCCAGUUUCUUCAGCAAG | 0.324
UAGGCAAAAUACUUUUCAGGCCUUUUUAAAAAAUUCAUUACAGCAAACAGCUGGGGAAGGACAUGCAGUCCUCCCCCAGCUCUGUCAAUGACUAUGACCUUGGCCAAAGCACUUCACUGC | 0.228
GCUGAAAGAAUGUCUAUUCUACAUCAUGAUCGAGAAGUUCGCAAAGAGAAAAUGCUCAGGCAAAUGGAUAAAAUGAAAAGUCCACGAGUGGCUCUUUCAGCUGCAACACAGAAGUCUCUU | 0.0993
GACCAUAUCAAGAAACUCAGUACUGAUGUGGAUUUGAUUGUUGAAGUGCUAAGAUCUUUACCUUUAGUCCAAGUGGAUGAGAAGGGAGAGAAAGUAAGGCCAAAUCAGAACCGGUGCAUA | 0.19
GGCUUUAUUCUGUGCCAUGGGAUGCUAAAUACGGAGGCUACCGCACUGAACCUUUGGAAGCUAGCUCUUCAGAGUAGCUCUUGCCUCUCUCUCUUUCGGGAUGAAGUUUUCCACAUUCAC | 0.142
CUGUGCUUUCUCAUAUUUAAUUUGCUGUUUUUAAGAUAUUCCAACCUAGAGUUUUUGAUGGAACUGAUAUAUUGACAGUUCUCACCGAAGUCCUUUUAUAAAGAAUUGCUACUCCAAUAU | 4.88

Series 4
Target: RNA binding protein fox-1 homolog 2, RRM domain, GST-SBP tag (RBFOX2, Homo sapiens, UniProt O43251-10, residues 100-194)
Technique: RNA Bind-n-Seq
Molecule type: RNA
Matrix: in vitro
Tested at: 365 nM
Setting: natural RNA segment, single round, ends assumed
Relative to: no-protein control
Reading: higher = stronger binding
All sequences stand within: GGGAGUUCUACAGUCCGACGAUC … UGGAAUUCUCGGGUGCCAA
Target sequence (chain): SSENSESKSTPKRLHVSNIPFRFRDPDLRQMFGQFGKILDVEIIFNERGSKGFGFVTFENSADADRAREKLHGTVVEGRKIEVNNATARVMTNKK
Strand | RBNS enrichment (R)
UUGUUGGUGGCGAUCGACCAGAUGUGUUCGUCUGCACAGCCGCGAGGCAACACUGUUCCGUUUGCACAUGAAGGACCACCACUCACCCCUCCCCCCAGGACCACCCAGGC | 0.435
CAAGUGCAUAUAAGAUGCCCUGAAAAGAGUAACAAAGUAUGCUUUGCCUGUUUCCACUUACCAGGAAAUUCCUUCAGAACUAGAUUAGCAUUGCCCUGCCUGUCUGAAAG | 0.372
AAAUAUAUGAGCCUAUGGGAACCAUUCUCAUUCAAACCACUAAACAUAGCCAAAUUCUUAGUUAUUUUAGACAGUAAAGGGGCUUCUAGAAUGUUAAGAAUGUUGAAAAU | 0.861
UAGGAGUGGGCAGGGCCGAAUGGAUGGGAGCGGAAGAGAAUGUCUUAGGAACAAGGAGUUGACAAGAGACUCCCCAGAGAGUCCUUGCGUCCACAAGGCCUCCUGAUACC | 0.854
CUUUUAGUGUUUGUACUGCUGCUGGUCAGAAUGUUGUUAACUGCUCAGUUCUAGGAAGCAGGAGAGCUCGCUUGUGCAGUGUCCCACACAGCAGGGCUGAGGGGCCUAGG | 0.953
CAGCUCCAAGACAAGAAUGAACCUGGCUGUGUCAGUCAUUUUGUCUUUUCCUUUUUUUUUUUUUUUUGCCACAUUGGCAGAGAUGGGACCUAAGGGUCCCACCCCUCACC | 0.794
UACCAAACAUUUCCUAAACUCUCUAGUUAGAUAUCUGACUUGGGAGUAUUAAAAAUUGGGUCUAUGACAUAUUGUCCAAAAGGAAUGCUGUUCUUAAAGCAUUAUUUACA | 0.341
CAGAAAAUCUGGAAACAGUUGCAGGUGUUGGGAGGAAGAUGAAAUCGAGCUGUCUUUUAACUUUUGUAUGUGUUUUAUCAGAAUUUGCUGGACUAUGCUGGCAAGGACUU | 0.692

For quick reference, copied from above (series 2):
Strand | fluorescence intensity [a.u.]
TAAGGAAGGATATGGCACACGCTTGTGTTCAAGAAT | 71
AGTACATTCACTTCTAACGTGACGGGTTTCACCACA | 178
GGGATATTCCACCATCACGTCTGCGCCAAGCCACAA | 77.4
CGTCCTAGCGATTGAGCGGTGGGTGCCATGAGGAAG | 77.4
GCTCTTCATACCCCTCCCGTGGAACTAGTTCGGAAG | 68.3
CTTTCCCGATCTTGACTGGTGGGTGTAGCACATTTG | 73.3
AAATTACTAAGTTGATCGGTGGGTGACGCCGTATGA | 65.8
